# Experimental data collected from several papers.
# Lines come from different studies, so protocols differ.
# TMPRSS2: Transmembrane protease serine 2 (TMPRSS2, Homo sapiens, UniProt O15393)
# Chain of UniProt O15393 (whole entry, looked up): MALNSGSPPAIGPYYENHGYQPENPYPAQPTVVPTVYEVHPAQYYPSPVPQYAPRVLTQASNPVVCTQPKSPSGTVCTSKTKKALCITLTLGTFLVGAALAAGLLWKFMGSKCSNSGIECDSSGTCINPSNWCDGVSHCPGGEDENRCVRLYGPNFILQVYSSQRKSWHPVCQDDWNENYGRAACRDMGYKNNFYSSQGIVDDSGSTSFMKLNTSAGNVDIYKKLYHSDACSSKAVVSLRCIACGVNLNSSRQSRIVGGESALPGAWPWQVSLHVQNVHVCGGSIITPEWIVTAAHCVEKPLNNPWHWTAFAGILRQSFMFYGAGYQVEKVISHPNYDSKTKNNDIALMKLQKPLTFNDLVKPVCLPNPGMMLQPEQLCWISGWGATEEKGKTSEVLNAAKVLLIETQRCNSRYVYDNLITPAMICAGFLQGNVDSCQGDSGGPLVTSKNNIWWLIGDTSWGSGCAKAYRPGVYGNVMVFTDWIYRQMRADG
# PFF0160c: Dihydroorotate dehydrogenase (quinone), mitochondrial (PFF0160c, Plasmodium falciparum, UniProt Q08210)
# Chain of UniProt Q08210 (whole entry, looked up): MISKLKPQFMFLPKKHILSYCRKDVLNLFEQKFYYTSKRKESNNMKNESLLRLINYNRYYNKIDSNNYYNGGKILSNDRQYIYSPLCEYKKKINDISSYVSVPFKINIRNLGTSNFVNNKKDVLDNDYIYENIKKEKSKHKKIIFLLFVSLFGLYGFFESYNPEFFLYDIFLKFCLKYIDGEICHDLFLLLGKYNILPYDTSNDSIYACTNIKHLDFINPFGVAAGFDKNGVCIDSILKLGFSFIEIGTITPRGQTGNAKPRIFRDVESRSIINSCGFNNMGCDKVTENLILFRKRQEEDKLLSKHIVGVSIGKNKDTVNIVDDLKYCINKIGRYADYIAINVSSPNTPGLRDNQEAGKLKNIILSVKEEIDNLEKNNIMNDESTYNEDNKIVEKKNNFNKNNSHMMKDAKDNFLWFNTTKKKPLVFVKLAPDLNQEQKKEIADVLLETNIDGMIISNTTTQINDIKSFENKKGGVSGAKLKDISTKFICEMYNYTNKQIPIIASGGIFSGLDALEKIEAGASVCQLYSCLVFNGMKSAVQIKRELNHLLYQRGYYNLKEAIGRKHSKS
# Chain of UniProt P35367 (whole entry, looked up): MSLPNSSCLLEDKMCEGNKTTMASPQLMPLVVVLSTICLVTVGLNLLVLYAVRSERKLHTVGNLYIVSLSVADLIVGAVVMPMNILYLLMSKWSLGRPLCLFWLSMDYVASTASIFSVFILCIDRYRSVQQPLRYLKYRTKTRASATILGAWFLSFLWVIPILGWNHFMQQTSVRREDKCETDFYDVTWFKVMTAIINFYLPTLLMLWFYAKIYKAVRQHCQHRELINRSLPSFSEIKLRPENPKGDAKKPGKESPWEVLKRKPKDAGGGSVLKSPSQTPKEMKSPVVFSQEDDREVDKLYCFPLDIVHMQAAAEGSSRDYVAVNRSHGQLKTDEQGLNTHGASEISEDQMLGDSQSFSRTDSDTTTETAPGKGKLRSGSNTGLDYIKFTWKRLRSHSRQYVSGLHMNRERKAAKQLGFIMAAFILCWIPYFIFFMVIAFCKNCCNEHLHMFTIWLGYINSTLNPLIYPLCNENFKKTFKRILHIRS
# Chain of UniProt Q86YV6 (whole entry, looked up): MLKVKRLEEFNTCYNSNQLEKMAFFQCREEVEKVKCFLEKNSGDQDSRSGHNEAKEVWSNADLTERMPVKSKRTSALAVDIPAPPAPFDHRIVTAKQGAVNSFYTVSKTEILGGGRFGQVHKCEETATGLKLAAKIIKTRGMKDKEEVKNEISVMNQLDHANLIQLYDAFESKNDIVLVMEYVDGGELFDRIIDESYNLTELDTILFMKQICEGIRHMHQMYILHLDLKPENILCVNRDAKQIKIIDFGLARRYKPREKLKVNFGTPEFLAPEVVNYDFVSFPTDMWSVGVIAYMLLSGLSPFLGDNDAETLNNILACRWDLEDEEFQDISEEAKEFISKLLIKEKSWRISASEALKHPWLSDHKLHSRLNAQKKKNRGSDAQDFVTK
# Chain of UniProt P08173 (whole entry, looked up): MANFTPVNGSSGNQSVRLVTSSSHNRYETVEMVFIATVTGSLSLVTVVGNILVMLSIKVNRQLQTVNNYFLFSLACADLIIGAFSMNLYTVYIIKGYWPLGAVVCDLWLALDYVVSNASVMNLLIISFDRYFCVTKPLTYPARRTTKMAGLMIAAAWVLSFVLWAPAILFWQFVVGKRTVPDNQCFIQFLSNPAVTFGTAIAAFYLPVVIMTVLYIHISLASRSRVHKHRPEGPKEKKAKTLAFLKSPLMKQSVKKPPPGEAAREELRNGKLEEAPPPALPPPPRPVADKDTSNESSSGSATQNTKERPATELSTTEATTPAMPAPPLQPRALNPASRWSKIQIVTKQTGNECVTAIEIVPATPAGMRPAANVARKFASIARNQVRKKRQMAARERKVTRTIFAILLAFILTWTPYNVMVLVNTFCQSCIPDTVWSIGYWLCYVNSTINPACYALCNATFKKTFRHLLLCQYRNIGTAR
# Chain of UniProt O00444 (whole entry, looked up): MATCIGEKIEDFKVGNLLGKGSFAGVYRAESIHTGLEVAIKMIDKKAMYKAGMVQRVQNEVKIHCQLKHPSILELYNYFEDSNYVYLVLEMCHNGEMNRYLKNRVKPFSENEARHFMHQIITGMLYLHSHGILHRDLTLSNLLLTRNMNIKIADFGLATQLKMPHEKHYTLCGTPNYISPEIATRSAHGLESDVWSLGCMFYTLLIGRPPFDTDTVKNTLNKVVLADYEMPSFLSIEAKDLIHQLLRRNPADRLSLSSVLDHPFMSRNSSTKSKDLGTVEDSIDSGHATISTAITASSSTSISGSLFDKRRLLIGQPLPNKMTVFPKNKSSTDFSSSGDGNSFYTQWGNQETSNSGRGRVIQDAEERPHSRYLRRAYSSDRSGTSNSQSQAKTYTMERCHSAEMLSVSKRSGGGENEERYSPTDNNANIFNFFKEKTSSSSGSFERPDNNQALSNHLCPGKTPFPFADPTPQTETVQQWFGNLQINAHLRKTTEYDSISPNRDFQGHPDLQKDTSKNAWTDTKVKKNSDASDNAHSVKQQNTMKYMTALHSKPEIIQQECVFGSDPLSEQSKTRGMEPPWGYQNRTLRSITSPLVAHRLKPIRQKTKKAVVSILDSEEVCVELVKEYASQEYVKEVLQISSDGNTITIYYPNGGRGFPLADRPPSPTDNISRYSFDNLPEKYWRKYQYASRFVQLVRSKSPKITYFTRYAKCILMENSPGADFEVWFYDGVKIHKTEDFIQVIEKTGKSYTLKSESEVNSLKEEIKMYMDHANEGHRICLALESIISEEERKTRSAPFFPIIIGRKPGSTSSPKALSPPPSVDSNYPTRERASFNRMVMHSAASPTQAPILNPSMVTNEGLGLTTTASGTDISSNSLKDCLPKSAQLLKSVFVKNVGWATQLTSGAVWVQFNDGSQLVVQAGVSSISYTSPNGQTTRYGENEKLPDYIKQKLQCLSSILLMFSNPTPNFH
# Chain of UniProt P06239 (whole entry, looked up): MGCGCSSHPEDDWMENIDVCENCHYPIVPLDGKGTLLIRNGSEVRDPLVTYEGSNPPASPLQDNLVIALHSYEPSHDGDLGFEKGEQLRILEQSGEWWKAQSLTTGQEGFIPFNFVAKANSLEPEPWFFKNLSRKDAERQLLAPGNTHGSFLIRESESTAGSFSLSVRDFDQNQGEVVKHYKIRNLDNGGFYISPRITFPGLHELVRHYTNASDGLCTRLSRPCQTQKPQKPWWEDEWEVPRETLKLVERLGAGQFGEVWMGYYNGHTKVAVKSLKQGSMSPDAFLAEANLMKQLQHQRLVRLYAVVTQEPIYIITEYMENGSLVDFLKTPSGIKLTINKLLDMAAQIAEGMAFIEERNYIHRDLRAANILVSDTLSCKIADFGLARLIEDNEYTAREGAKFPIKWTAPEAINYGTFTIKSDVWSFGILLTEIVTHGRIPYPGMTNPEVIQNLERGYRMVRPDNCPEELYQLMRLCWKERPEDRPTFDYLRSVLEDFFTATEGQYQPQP
# Chain of UniProt P31749 (whole entry, looked up): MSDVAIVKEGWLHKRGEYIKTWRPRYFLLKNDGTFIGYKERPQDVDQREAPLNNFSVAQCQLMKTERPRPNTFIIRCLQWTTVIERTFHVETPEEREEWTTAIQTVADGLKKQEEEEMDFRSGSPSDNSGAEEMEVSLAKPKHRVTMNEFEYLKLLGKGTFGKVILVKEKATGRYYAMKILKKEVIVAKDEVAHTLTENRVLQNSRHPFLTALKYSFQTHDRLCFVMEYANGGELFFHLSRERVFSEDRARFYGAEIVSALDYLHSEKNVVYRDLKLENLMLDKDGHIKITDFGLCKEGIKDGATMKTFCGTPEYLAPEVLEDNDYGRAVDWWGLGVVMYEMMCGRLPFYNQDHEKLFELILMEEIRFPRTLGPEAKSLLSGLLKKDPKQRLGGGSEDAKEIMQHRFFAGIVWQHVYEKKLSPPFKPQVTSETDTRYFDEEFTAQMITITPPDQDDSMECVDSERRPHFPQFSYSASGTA
Structure (SMILES),target,observed,mode,method,tested at,quantity,result
CC(C)CC(=O)OC[C@H]1O[C@@](C#N)(c2ccc3c(N)ncnn23)[C@H](O)[C@@H]1O,"CHRM4 (Homo sapiens, UniProt P08173)",cell-free assay,,,20 µM,inhibition,3%
C[C@H](NC(=O)[C@H](CC(N)=O)NC(=O)[C@@H](N)CCCCN)C(=O)N[C@@H](CCCNC(=N)N)C(=O)c1nc2ccccc2s1,TMPRSS2,enzyme activity,inhibitor,,1 nM,activity vs control,97%
c1cncc([C@@H]2CCCN2)c1,"HRH1 (Homo sapiens, UniProt P35367)",ligand displacement,,,50 µM,inhibition,16%
C#Cc1n[nH]c2c(-c3cn([C@@H](C)c4ccccn4)c(=O)[nH]c3=O)cc(F)cc12,"AKT1 (Homo sapiens, UniProt P31749)",enzyme activity,inhibitor,,0.1 µM,inhibition,0.9%
[2H]c1c([2H])c([C@]2([2H])CCCN2C(=O)C(C)(C)Oc2ccc3cn[nH]c3c2)c([2H])c([2H])c1C([2H])([2H])[2H],"LCK (Homo sapiens, UniProt P06239)",binding,,competition with immobilised ligand,1 µM,remaining binding,65%
CC(Oc1ccc(C(=O)c2ccc(F)cc2)cc1)C(=O)N1CCc2ccccc21 (stereo not drawn),PFF0160c,enzyme activity,inhibitor,absorbance,,IC50,2540 nM
Cc1nn(C)cc1-c1nc2c(N3CCN(Cc4ccc(Cl)cc4)CC3)c(Cl)cnc2[nH]1,"PLK4 (Homo sapiens, UniProt O00444)",binding,,competition with immobilised ligand,1 µM,remaining binding,84%
COc1ncccc1-c1cnn2ccc(N3CCN(C(=O)OC(C)C)CC3)nc12,"MYLK4 (Homo sapiens, UniProt Q86YV6)",binding,,competition with immobilised ligand,1 µM,remaining binding,7.6%
N=C(N)NCCCCC(=O)N[C@@H](CCC(=O)O)C(=O)N[C@@H](Cc1ccccc1)C(=O)N[C@@H](CCCNC(=N)N)C(=O)c1nc2ccccc2s1,TMPRSS2,enzyme activity,inhibitor,,1 nM,activity vs control,14%
Nc1ncc(-c2nc(N3CCOCC3)nc(N3CCOCC3)n2)c(C(F)F)n1,"Tyrosine-protein kinase ABL1, non-phosphorylated (ABL1, Homo sapiens, UniProt P00519, Q252H)",binding,,competition with immobilised ligand,10 µM,remaining binding,70%
CC(=O)N[C@@H](CCC(N)=O)C(=O)N[C@@H](Cc1ccccc1)C(=O)N[C@@H](CCNC(=N)N)CC(=O)c1nc2ccccc2s1,TMPRSS2,enzyme activity,inhibitor,,1 nM,activity vs control,99%
CCn1cc(C(=O)NC2CCNCC2)n(Cc2ccccc2)c1=O,PFF0160c,enzyme activity,inhibitor,absorbance,,IC50,> 10000 nM

# Excerpt of the above:
Structure (SMILES),target,observed,mode,method,tested at,quantity,result
[2H]c1c([2H])c([C@]2([2H])CCCN2C(=O)C(C)(C)Oc2ccc3cn[nH]c3c2)c([2H])c([2H])c1C([2H])([2H])[2H],"LCK (Homo sapiens, UniProt P06239)",binding,,competition with immobilised ligand,1 µM,remaining binding,65%
CC(Oc1ccc(C(=O)c2ccc(F)cc2)cc1)C(=O)N1CCc2ccccc21 (stereo not drawn),PFF0160c,enzyme activity,inhibitor,absorbance,,IC50,2540 nM
